Measured values of several laboratories.
Parts stem from different laboratories: compare values within a part only.

Series 1
Target: RNA binding protein fox-1 homolog 2, RRM domain, GST-SBP tag (RBFOX2, Homo sapiens, UniProt O43251-10, residues 100-194)
Method: RNA Bind-n-Seq
Form: RNA
Medium: in vitro
Concentration: 365 nM
Notes: natural RNA segment, single round, ends assumed
Reference: no-protein control
Direction: higher = stronger binding
Endpoint: RBNS enrichment (R)
Shared flanks, not repeated: GGGAGUUCUACAGUCCGACGAUC … UGGAAUUCUCGGGUGCCAA
Residues (chain): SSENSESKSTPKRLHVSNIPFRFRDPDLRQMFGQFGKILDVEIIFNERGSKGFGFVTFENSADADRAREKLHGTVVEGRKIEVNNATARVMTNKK
GUUUUUGUUCUGUCUACCCUCUCAGGGAUAUGAGAUUCUCCCAGGCUUGUUUCCUGUCAGCCAUCUCUGUCUUUGGGUAUGAAACAUAAGGAUGGCUCCUCCGGUGUCGU: 0.358
CCUGUUCUGUGGCAUUCAUGAAAAACAAGUUGAAGAAUUUGUUUAUCUGGAAUUGUUUCUAAAUAUAAGUCAUUUGUAGCAAGACUUUGGAAGCAUUCUUUCUUAAACAU: 0.822
CCAGUAAUGGAGGCCUCCAGCCUGGGCUCUAUUACAUUCUUCUCUACAGCUGCCCCAUAACCCGUGGCUUAUCCCUGGCACGUGGGGCCACACCCCACGCCCCCUGGAUA: 0.192
AAUUAAUAAAAUCCCAAUGAAGCAGAGUUAUAGGGAUAGAUUUAUAGCUGGCAGAGUGGUAUCAAAGGAGAAAAACAGUGAAAAAGCCAAUUUCACUGGUUCGUUCAAUC: 0.677
CCAGUUUCAGCCGAGGCAGCAGUUUUCCUGGGAUAAUUAGCCAAGGGUUCCCCAGAGUCUUCCUAGGUAUCUCUGGGAACCAGCAGAAGGAAUUUUCACCUAAGAGGGAU: 0.324
UGUUGUACAUCUCAGGAACCCUCGGUUCCUCCACGGAUGGACGACUGCAGAAUAGAGCAGAAUAGAGAAAGUAAGCCUGAAGCUGAGUGCCUCAGCCACAAACCUAAAGG: 0.264
AGUAUGAGCAAGACAUCUGAAGUACACAGUUGCUUUUAGGCUUGUAUAGUUAUUUUCUACACAUGCCAACACACAUGAUGAUAAAGGAACCUUUUCUAGGAGGCAUUGCA: 1.51
UUUAAUUAUGCUUUUCCUCUAAAUAGCAACUUAAAUAUUUGCUAGACUUUGAAUCAUCGCUAUAUCAAGUAUCUAAAAUUUGGGAGGGUGAAUCAGUACACUGUGACCAA: 0.384

Series 2
Target: RING finger protein unkempt homolog, zinc fingers 1-6, GST-SBP tag (UNK, Homo sapiens, UniProt Q9C0B0, residues 30-357)
Method: RNA Bind-n-Seq
Form: RNA
Medium: in vitro
Concentration: not given
Notes: RNA with constant flanks, ends assumed
Reference: input RNA pool
Direction: higher = stronger binding
Endpoint: bound/input enrichment
Shared flanks, not repeated: GGGAGUUCUACAGUCCGACGAUC … CAACAGAGGAUUGAGCAUCA
Residues (chain): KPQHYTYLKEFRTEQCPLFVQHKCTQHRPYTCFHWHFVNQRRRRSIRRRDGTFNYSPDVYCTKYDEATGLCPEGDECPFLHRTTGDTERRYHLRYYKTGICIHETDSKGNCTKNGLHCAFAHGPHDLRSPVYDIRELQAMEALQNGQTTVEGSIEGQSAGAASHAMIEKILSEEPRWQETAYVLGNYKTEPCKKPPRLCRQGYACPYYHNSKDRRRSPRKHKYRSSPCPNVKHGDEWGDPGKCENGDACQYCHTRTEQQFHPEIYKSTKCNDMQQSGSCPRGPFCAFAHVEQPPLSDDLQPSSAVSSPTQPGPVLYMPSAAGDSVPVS
UAUCCAACUUUCUUUCCACGUUUUGAAUUCCAAGAUGUUAUCCCUCCAGAUGACUUUCUAACCCGUGAUGAAGAAGUAGAUUCCGUUUUAUUUGGAAGUUUGAGAGGUCAUGUGGUUGGA: 0.378 ratio
AUGAUAUAAAACAUUUUGUGUUUCAUCUACCCAUUCAGCAAGAAUGAGUCCAGUCCCAUGUUCCGAUUAUUUUAACAUAAUUUGUGAAUGAUAGUUUCACAUUUGGCUGAUGGUUUGCAG: 0.335 ratio
AUAUCCAGUGGCCUAGAAUUUGUAUCCCACAACCCACCCAGUGAAGCAGCUACUCCUCCAGCCGCAAGGACCAGUCCCUCGGGGGGAACGUGGUCAUCAGUGGUCAGUGGGGUUCCAAGA: 0.107 ratio
CUGAAAUCUGUGGAGAGCACAUCUCCAGAGCCAUCAAAGAUCAUGUUGGUAGAGCCCCCAGCCGCAAAAGUGUUAGAGCCUUCAGAAACCCUUGUGGUAUCAUCAGAGACACCUACUGAG: 0.0616 ratio
AUCUAUACAACCAUCAACGCCCACCAGUGGUCAGAGACUGUGCAGCCAAUCAUGGAAGCCCUCCGAGAUGCAACAAGGAGACGCGCCUUUGCCCUGGUCUCUCAAGCUUAUACCUCCAUC: 0.132 ratio
CCAUCGUCAACUCACACCAUUCCAUUCUAUCCCAACCCCUUGCACCCUAGGCCAUUUCCCCGCUCCCGCCUUCCUCCAGGAAUUAUCGGGGGUGAAUAUGACCAAAGACCAACACUUCCC: 0.283 ratio
AGUGCCUAUGAUUACACAAUACCACCUAUGGAGAAAGCUGUUGUGAAAACGGACAUUCAGACCGCGCUCCCUUCUGGGUGUUAUGGAAGAGUGGCUCCACGGUCAGGCUUGGCUGCAAAA: 0.187 ratio

Mixed results
BMS1 (Homo sapiens, UniProt Q14692)  cross-linked residues (FSAF1 (Homo sapiens, UniProt Q8NDD1); cross-linking MS; cell fractions; with: DSSO): K1265 to K202
PhoQ, residues 284 288 289 292 302 303 ALAMYF  fold induction (PhoP, residues 12 14 15 18 19 GQALL (Escherichia coli, UniProt P23836); Sort-seq, refers to: YFP reporter; E. coli; PhoQ-PhoP variant library, with: 10 µM Mg2+; reference: high Mg2+ state, higher = stronger signaling): 27.2

Some of these lines once more (series 2):
UAUCCAACUUUCUUUCCACGUUUUGAAUUCCAAGAUGUUAUCCCUCCAGAUGACUUUCUAACCCGUGAUGAAGAAGUAGAUUCCGUUUUAUUUGGAAGUUUGAGAGGUCAUGUGGUUGGA: 0.378 ratio
